# Measured values pooled from the literature.
# Numbered parts are unrelated; each lists some results of a single study. Changes are numbered by the printed parent chain.

# Series 1 — target: CCNA2, cyclin fold, Cln2 fusion (human); technique: yeast growth competition, sequencing; medium: yeast; setting: strong parent motif; reference: not given; reading: higher = stronger binding
# Starting sequence: CDC6 docking peptide (human); TLKGRRLVFDNQL
Substitution,normalised enrichment score
L13Q,3.15
F9M,1.59
R5D,-1.18
L2S,1.88
D10W,2.12
D10I,2.34
R5A,0.89
L7A,0.378
L2R,5.02
D10L,1.29
K3N,1.16
V8F,2.53
Q12A,3.12
N11K,2.62
N11E,3.52
K3C,3.66
R5Y,0.244
K3A,2.27
F9G,0.78
V8K,2.52
R5F,0.455
Q12T,3
L13W,3.75
N11F,3.36
L13T,2.52

# Series 2 — target: ATF5, bZIP domain (human); technique: DHFR protein complementation; medium: yeast; reference: wild-type JUN-FOS pair; reading: higher = stronger binding
# Setting: single substitutions, most at no-binding floor
# Starting sequence: JUN, bZIP domain (human); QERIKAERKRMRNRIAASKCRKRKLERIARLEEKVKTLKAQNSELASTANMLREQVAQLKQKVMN; partner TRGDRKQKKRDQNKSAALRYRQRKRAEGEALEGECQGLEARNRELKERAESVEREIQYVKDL
Substitution,binding fitness [natural log]
L52R,-1.55
R30L,-1.45
S47G,-1.39
Q55Y,-1.3
L52A,-1.47
A40L,-1.3
E32A,-1.26
N42T,-1.34
V35Q,-1.4
T48Y,-1.53
K36G,-1.51
E32G,-1.43
L45W,-1.38
R53S,-1.52
S43P,-1.5
E54S,-1.53
N42H,-1.48

# Series 3 — technique: protein binding microarray; molecule type: double-stranded DNA, one strand shown; medium: in vitro; concentration: not given; reference: not given; reading: higher = stronger binding
# Target: Histone acetyltransferase KAT6A, winged helix 2, GST fusion (KAT6A, Homo sapiens, UniProt Q92794, residues 85-181)
# Setting: 8-mer, flanks averaged, mean of 2 arrays, mostly near background
# Target sequence (chain): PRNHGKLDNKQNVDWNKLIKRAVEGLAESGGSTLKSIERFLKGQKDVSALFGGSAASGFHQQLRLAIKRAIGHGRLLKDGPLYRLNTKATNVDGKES
Strand,E-score
AAATCCTG,0.111
ATCTGCAT,0.0115
TAGGCTGA,-0.0602
CCGCGTCA,-0.0598
GACCTCGA,0.0945
ACCGCATG,0.0675
ATTCGGAC,0.133
CACCTAGA,-0.134
AGGGGCTA,0.0274
TAAGACGA,-0.129
CAAAACAA,-0.13
CGTGAGTA,-0.0086
CTGCAAGA,0.117
TACTCTAA,-0.127
GAGGACGC,0.0889
AGCAAACC,0.15
GCTCAGGA,0.104
CACAGATG,-0.188
CTAGTAAC,-0.201
CGCCGTCA,-0.00419
AGTCTACC,-0.165
AATCATCA,-0.00214

# Series 4 — technique: universal PBM; molecule type: double-stranded DNA, one strand shown; medium: in vitro; concentration: 600 nM; reading: higher = stronger binding
# Target: Sal-like protein 4, full length isoform A (SALL4, Homo sapiens, UniProt Q9UJQ4, residues 1-1053)
# Sequence of UniProt Q9UJQ4 (whole entry, looked up): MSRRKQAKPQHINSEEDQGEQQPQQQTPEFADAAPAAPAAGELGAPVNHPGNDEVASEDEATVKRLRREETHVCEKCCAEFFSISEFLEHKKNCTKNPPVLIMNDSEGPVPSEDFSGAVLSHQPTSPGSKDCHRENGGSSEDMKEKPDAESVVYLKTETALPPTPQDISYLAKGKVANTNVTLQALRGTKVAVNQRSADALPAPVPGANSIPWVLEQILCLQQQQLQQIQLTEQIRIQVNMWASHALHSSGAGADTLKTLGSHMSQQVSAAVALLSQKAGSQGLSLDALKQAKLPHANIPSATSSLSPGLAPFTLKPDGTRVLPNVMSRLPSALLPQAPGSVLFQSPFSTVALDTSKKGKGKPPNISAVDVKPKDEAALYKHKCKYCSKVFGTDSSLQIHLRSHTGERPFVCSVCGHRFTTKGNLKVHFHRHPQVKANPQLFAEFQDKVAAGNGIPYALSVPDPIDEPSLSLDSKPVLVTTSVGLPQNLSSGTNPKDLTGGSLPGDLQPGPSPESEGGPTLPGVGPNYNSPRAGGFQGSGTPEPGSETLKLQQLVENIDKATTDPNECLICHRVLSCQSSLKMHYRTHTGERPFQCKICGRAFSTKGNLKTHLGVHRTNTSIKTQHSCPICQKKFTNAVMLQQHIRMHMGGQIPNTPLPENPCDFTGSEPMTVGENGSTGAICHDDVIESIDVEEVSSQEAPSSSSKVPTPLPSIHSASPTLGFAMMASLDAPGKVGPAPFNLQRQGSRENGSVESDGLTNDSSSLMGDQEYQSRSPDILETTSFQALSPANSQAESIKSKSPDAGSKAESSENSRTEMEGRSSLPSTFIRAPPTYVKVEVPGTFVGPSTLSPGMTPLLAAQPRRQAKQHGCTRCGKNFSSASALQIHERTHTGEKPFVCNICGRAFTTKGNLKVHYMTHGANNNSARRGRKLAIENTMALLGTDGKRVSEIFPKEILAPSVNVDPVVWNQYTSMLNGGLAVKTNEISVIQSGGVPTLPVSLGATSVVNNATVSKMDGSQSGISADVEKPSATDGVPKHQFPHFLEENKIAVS
# Setting: 8-mer, flanks averaged, mean of replicates
Strand,E-score
GTCTCACA,0.0413
GTCCGAAA,0.0681
CCTATGGA,-0.0441
AAGTGCCT,-0.162
CTCTCTTC,-0.191
AACAAACT,0.206
CACAAGGA,-0.0419
CTACAAAA,0.195
AAGCAGAA,0.113
CGGTGCCC,-0.408
AACCGTGC,-0.172
CTATTAAC,0.234
ACCCTCTC,-0.251
ACCCGGCC,-0.386
GTTCCAAA,0.154
ACAACCGA,0.00587

# Series 5 — technique: RNA Bind-n-Seq; molecule type: RNA; medium: in vitro; concentration: 365 nM; reference: no-protein control; reading: higher = stronger binding
# Target: RNA binding protein fox-1 homolog 2, RRM domain, GST-SBP tag (RBFOX2, Homo sapiens, UniProt O43251-10, residues 100-194)
# Setting: natural RNA segment, single round, ends assumed
# Construct (chain): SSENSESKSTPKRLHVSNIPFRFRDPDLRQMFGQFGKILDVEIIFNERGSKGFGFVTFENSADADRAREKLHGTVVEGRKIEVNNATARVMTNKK
Strand,RBNS enrichment (R)
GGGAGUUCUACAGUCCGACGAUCGUAGGUUUUGCAGUUAAUGGCCUGAAUGCUAGAUAUCAGAUCACCUGUUUCGCUGUGGGAACAGGAGAGAAGGUGAUGAACAAACCACCAUCCGCUGCAUGGUCACAGUAUGGAAUUCUCGGGUGCCAA,2.23
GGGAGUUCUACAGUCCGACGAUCGAGCACCUGAAGACUAAUGUUUUACACUGGAUUGAGAUCUCAUGGAAAAUGAAACAUUCUUUUUCUGGAGAAGUUUACAUGCCCAUUGUUGGUCACCUCUUUACUGUAAAUGGAAUUCUCGGGUGCCAA,0.453
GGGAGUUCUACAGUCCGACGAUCGCUGUCUGGGACCGGAAACCAGCUUUGUCUCCAGGUAGAGACAACAUCCUGUGACUGCCAGGCAGAAAGGACAGGGCCCAGGUCAGCCUCAGUCUGCUGUGCCUCCAGACUGGAAUUCUCGGGUGCCAA,0.391
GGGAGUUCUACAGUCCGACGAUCGAUGGGGCCCUUCCUCCGGGUGACCCCACAGGGCCUUUCCAAGCCCCCAUUUGAGCUGCUCCUUCCUGUGUGUGCUCUGGGCCCUGCCUCGGCCUCCUGCGCCAAUACUGUGGAAUUCUCGGGUGCCAA,0.418
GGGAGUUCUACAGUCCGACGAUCCCCAUGAAUGGUGGCUCUCAAGCUUCUGUGCUACACAGGGGUGUGUGGUUGGGCGAGUGUCCUUGUUAAUUGAUACCUAAUUGGCCUUGGUUGGGAACAUAGCCAUGAGUUGGAAUUCUCGGGUGCCAA,0.529
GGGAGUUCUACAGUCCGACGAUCUAAGAAUUUAUAGACGCACUUCCUUACAAAGCUAAGCGUUCAGAGCCAUGGGCUACAGGCCACACCUUAAGAGGACUGUUUACGCAAUAGUGUCCCCUACCCUGUAUAUAUGGAAUUCUCGGGUGCCAA,0.349
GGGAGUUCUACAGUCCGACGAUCUCUGUCAUAGGCAUAGAGAGUUGCACAUAAAAAAUACCGAAGAAAACCCAAAAUUCAAUCAACAAUUCUGUCUUAUUGAAGAGUUGCUAGGAUUCAGAGUAAAACUCAAAUGGAAUUCUCGGGUGCCAA,0.273
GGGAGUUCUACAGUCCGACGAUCUUGCCGAUCUUUUAGAAAUACCUUUUCUGGAGAAAAAAAAAUCCACAUGAAGUGCAAUAAGCUUAUAAAGCUAAGUAGUUAUUAAUAUUUCUAUUAACAUGAUACAAAGGUGGAAUUCUCGGGUGCCAA,0.265
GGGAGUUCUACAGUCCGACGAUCCCCAGAGCACAGGAGCUGCCAUGUCAGAUGGGAAAUCUGCCUAUGUCAUACCGUGACAGCCCGCAGGAUCAGGUGACUUCUAGCAGAGACCCUGGUUUUUUUCCUGUGCCUGGAAUUCUCGGGUGCCAA,0.612
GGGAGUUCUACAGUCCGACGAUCGAAGGGUCAUAAGCUCAAGGCCAUUUUUAGAAGCUUGUUGGGACACUGUCUCCAAUAGAAAGUGAAAAGAGAAGUGUGUGUAUAGCUCAGUGGUAGAGUGCUUGCCUGAUUGGAAUUCUCGGGUGCCAA,0.414
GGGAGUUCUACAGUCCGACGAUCUUCGUCCUGUACCUAGGACCGGAGGAAAGACGUGACUGCUCUAACCGGACCUCUGACUACCGGUGGCUUUUACAAAAAAAAAACAGCUAAAACGUACUCAGCAAAAAAAAUGGAAUUCUCGGGUGCCAA,0.249
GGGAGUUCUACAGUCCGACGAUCAAUCGCUGGAUAAGCAAAUACAUGGGUCCUGUGCCCUCUCCCUUCACACCAUGGGAUACAUCUGUAUGGAGACGGUUCUUUUCUAGAUUUCCUCUACCUUUCUGCUCUUAUGGAAUUCUCGGGUGCCAA,0.2
